# Measurements collected from several papers.
# Every numbered part comes from another study and shows a few of its results, in no order. Substitutions count along the parent as printed.

# Study 1
# Target: Histone acetyltransferase KAT6A, winged helix 1, GST fusion (KAT6A, Homo sapiens, UniProt Q92794, residues 1-85)
# Method: protein binding microarray
# Form: double-stranded DNA, one strand shown
# Sample: in vitro
# Tested at: not given
# Setting: 8-mer, flanks averaged, mean of 2 arrays, mostly near background
# Reference: not given
# Direction: higher = stronger binding
# Construct (chain): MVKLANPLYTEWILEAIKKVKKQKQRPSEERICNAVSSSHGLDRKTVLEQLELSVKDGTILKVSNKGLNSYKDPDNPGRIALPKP
Strand,E-score
GGCTTGTA,-0.0222
CCAGAACA,-0.215
CGCGTGTC,0.295
GCTTGCGA,0.0657
CTCGCGGC,0.448
AGGTCACC,-0.0681
CCAGTTCG,-0.132
GGAAAACA,-0.133
GTTCCTCA,-0.0489
CTTAGCAA,-0.158
AGGCGGTG,0.0986
CACTACTG,-0.055
AAGTGACG,0.023
AGAGCCCC,-0.106
AGTCACTA,-0.0827
GGTCATGA,-0.132
CAGTAATA,-0.0323
ATGGGAGC,-0.0309
AAATTGAA,-0.257
CAACGGAG,0.0359
ATCTCGTC,-0.127
CGTTCCCA,-0.0599
ATGACTCG,-0.124
AATACGCC,0.201
ATCGGGGA,-0.0441

# Study 2
# Target: Phosphate system positive regulatory protein PHO4, full length, GST-tagged (PHO4, Saccharomyces cerevisiae, UniProt P07270, residues 1-312)
# Method: competition protein-binding microarray
# Form: double-stranded DNA, one strand shown
# Sample: in vitro
# Tested at: 2 µM
# Setting: whole 60-bp probe, lowest competitor level
# Added: Cbf1 competitor, 0.05 µM
# Direction: higher = stronger binding
# All sequences stand within: … GTCTTGATTCGCTTGACGCTGCTG
# Target sequence (chain): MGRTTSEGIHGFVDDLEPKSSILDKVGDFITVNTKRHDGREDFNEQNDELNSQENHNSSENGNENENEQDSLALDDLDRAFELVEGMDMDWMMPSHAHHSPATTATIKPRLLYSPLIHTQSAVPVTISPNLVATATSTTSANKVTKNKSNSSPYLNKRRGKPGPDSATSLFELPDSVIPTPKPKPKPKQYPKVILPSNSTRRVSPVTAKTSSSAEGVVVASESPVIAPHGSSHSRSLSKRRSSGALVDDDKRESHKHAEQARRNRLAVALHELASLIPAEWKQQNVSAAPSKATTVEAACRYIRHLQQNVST
Strand,fluorescence intensity [a.u.]
CTTCTGTAAATTTGCTAAGTGGGTGGACGCGCCCCG,4350
GTTTGGTCCTATCAACATGTGCCGAGAATTGTCGGA,12200
CGGGGTTAAGTTTTTCACGTGGTATGCTTGCAGCAG,14300
GGGAGACACTTCCGTCACGTGAACCTCTATCTATTT,10900
AGGGACGAGGGTTGCCACGAGGAGGTAGGAAGGAGC,11100
ACGACCAAGTTCATCTAAAATTAACAGTGTTTCTGT,4050
CACAACCTTAACAGCAACGTGAACCTCAACATGAAC,10700
GTTGGAGATAGTGTAACCGTGACTCGATTTTTCAAG,5220
ACTTTCAACGTCCATCACGTGAACGACCGGCATTCT,11900
CTAACGAAGGTTTGAAAAGTGGGTGACAAGCCAAGT,3620
TTTTTTTCCCAGAGACGCGTGGAAGCACCCATGGAT,7110
CGTCCTAGTGATTGTCACTCGACTTCCATGAGGAAG,3960
TAAAATGACTGACAGCACGGGACCTTTGAAATTTTG,8620
GGAAAAGGAAAGCCAAATGTGACGGACTCAGACTAC,4090
GAGCTACTTTTTCAACACGTGCATCCAACTTGTAGC,19000
AGCCGGCTATTTACCCACGTCCGGTATCTCAAAGGA,5290

# Study 3
# Target: RING finger protein unkempt homolog, zinc fingers 1-6, GST-SBP tag (UNK, Homo sapiens, UniProt Q9C0B0, residues 30-357)
# Method: RNA Bind-n-Seq
# Form: RNA
# Sample: in vitro
# Tested at: not given
# Setting: RNA with constant flanks, human-mouse chimeric sites, ends assumed
# Reference: input RNA pool
# Direction: higher = stronger binding
# All sequences stand within: GGGAGUUCUACAGUCCGACGAUC … CAACAGAGGAUUGAGCAUCA
# Target sequence (chain): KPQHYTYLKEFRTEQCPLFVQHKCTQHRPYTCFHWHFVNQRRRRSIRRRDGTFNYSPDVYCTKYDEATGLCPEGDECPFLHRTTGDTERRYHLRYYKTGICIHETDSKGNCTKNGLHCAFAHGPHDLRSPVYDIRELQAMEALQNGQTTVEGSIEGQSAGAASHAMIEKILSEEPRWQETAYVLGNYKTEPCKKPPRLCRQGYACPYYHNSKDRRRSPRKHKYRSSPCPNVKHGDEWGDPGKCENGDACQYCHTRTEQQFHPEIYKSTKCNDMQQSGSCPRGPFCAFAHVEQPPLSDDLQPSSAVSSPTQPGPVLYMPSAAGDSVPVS
Strand,bound/input enrichment [ratio]
AAUUUCCUGUCAUACUUUUUAGACAUUCACAUCAGACUUACAGAGCACCUGGCCACAUUCUAGGUUUGUGUUAUUUCUCAGCUAUGGAUAUGAUCAAAGAGUGAAAAUGCUUAACUAAUG,0.393
GUGUCCUGCUUUCAACUAUCACUGAGGAGGCAUCUCUACUGUUCUGUGAGCAUCAGGAUUUUAGUGCUGUGUCACCACAUGAGAGUUCAGAAGCAGCCUUUCUGUGGAGGGUGGGAAUGA,0.0838
AUGGAACAUUUCGAUGCGUCACUCAGUACCUAUUUCAAGGCCUUCCUGGGCCCCCGAGAUACAAGAGUCAAAGGAUGGUUCCUCCUGGACAAUUACAUACCCACAUUUAUCUGCUCUGUU,0.0806
GAUCCACAGUGGUCUGAGGAGCAACUCAUUGCUGCAAAAUUCUGUUUUGCUGGCCUUCUUAUAGGCCAGACUGAAGUGGACAUCAUGAGUCAUGCUACACAAGCUAUUUUUGAAAUUCUG,0.0952
GUAUACGGUUAUCGAGGAAAGGACUGUAGAGCUAAUGUAUACCUGCUUCCCACAGGGGAGAUAGUUUAUUUUAUCGCCUCAGUGGUAGUCCUGUUUAAUUAUGAGGAGAGGACUCAGCGA,0.317
AAAGAGUGGAUAGAGUGUGCACACGGGAUCGGUUAUACCCGGGCGAAGAAAGAGUGCAAGAUAGAGUUCGAUGACUUCGAAGAGUGCUUGCUUCGGUACAAAACGAUGAGGCGAAUGCAU,0.383
GAUCAUGAACCACCAUCAGAAAUGAAGGAUGAGACUACCAGACGAGCCAAAACAGCUGCGCUACAGAAAAGUAAACUUAACCUUGCAGAGUUCCUUAAUGAAGAUACAAGUUAAGAGAGC,0.223

# Study 4
# Target: Sal-like protein 4, full length isoform B (SALL4, Homo sapiens, UniProt Q9UJQ4-2, residues 1-616)
# Method: universal PBM
# Form: double-stranded DNA, one strand shown
# Sample: in vitro
# Tested at: not given
# Setting: 8-mer, flanks averaged, mean of replicates
# Direction: higher = stronger binding
# Residues (chain): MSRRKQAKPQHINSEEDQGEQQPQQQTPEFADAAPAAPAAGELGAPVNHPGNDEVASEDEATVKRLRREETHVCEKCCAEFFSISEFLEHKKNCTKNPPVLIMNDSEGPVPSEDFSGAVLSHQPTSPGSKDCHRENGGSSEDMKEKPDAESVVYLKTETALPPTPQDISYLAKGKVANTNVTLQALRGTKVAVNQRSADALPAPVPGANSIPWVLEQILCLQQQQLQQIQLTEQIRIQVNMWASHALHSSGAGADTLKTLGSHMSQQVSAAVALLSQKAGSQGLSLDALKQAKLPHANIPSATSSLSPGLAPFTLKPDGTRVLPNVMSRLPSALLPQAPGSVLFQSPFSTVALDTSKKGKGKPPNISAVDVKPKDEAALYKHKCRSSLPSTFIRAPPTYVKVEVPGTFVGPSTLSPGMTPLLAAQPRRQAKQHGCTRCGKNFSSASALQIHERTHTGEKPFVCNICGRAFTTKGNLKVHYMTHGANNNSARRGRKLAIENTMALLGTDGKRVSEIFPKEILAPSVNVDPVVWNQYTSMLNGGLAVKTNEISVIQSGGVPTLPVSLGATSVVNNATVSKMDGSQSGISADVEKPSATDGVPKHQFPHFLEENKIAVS
Strand,E-score
ATAACTCC,0.273
AAGCGAGC,-0.158
GTTATTAA,0.443
CGGGGGAC,-0.355
TAGAACGA,0.14
GATGAACC,-0.241
CGTCGTAA,0.00734
ATTTAGGG,0.0662
AAGGGTTC,-0.22
CGATCACC,-0.159
GCCTACAA,0.0291
ATGACTAG,0.145
CGTACCTC,-0.19
GTATTGAA,0.283
AGCGCCAC,-0.325
ACCGTACG,-0.0837
CTCTGTAA,0.0336

# Study 5
# Target: Interferon regulatory factor 3, full length, phosphomimetic (IRF3, Homo sapiens, UniProt Q14653, residues 1-427, S386D/S396D/S398D/S402D/T404D/S405D)
# Sequence of UniProt Q14653 (whole entry, unmodified, looked up): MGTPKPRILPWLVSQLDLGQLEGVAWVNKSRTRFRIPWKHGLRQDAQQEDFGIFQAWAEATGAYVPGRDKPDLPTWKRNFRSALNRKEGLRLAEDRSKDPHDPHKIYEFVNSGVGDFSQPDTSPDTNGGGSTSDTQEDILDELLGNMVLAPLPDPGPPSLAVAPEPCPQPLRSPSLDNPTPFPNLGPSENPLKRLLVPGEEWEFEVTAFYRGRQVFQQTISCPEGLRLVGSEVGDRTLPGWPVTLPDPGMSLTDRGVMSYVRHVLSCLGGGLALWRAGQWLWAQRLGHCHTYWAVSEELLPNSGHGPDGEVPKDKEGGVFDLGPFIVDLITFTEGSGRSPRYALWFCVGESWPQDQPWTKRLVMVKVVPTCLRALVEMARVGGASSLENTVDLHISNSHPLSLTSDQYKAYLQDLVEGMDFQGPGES
# Method: protein-binding microarray
# Form: double-stranded DNA, one strand shown
# Sample: in vitro
# Tested at: 2540 nM top
# Setting: 60-bp whole probe
# Added: salmon DNA 0.4 mg/ml
# Reference: random background probes
# Direction: higher = stronger binding
# All sequences stand within: GCCTAGCAC … GTCTTGATTCGCTTGACGCTGCTG
Strand,fitted relative affinity [z-score]
TTAGGTCTTCTTTTCCTTTAGTGCTAG,1.73
AACGGTCTCCTTATCCTGACGTGCTAG,2.73
AAGGTATTATTTATTGTAGCGTGCTAG,0.38
ATAGGACTGCTTCTCCTTTAGTGCTAG,-0.0931
TCCATTTTTACCCTCCTTACGTGCTAG,2.06
TCATCTATGTCTGTTTTACTGTGCTAG,0.91
GACGGACGGGGTATCGGGACGTGCTAG,-0.279
CACGGTATCCTTCTCCTGACGTGCTAG,6.83
TTAGATTTCAGAATCGATTAGTGCTAG,2.42
GTCGGACTGGGGTATCGGGACGTGCTA,-0.309
GACGGTATCCACTTTCGGGACGTGCTA,2.85
GACGCACTGGGGTATCGGGACGTGCTA,-0.505
TCATTTTCATTTTATGACACTGTGCTA,4.13
TGATGACTGGAGTCTGGACTAGTGCTA,-0.942
TTAGGTTTCGGCTTTCGGTTAGTGCTA,3.87
TCACCAATCTCTCTTCAACTGTGCTAG,2.42
CTAGGTTTCGACACTGGGTTAGTGCTA,2.41
TTAGGTCTCGGGTATCGGTTAGTGCTA,0.543

# Study 6
# Target: ABI1, truncated, D143A, DHFR fusion (Arabidopsis thaliana)
# Method: DHFR PCA, deep sequencing
# Sample: yeast
# Setting: methotrexate growth selection, single substitutions
# Added: (+)-ABA 0.032 µM
# Reference: wild-type fitted maximum
# Direction: higher = stronger binding
# Parent: PYL1, truncated, DHFR fusion (Arabidopsis thaliana); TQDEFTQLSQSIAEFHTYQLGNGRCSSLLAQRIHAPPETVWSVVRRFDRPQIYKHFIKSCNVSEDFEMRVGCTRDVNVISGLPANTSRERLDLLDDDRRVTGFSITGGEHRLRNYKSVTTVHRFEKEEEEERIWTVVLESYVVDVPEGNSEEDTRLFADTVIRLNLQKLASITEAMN; partner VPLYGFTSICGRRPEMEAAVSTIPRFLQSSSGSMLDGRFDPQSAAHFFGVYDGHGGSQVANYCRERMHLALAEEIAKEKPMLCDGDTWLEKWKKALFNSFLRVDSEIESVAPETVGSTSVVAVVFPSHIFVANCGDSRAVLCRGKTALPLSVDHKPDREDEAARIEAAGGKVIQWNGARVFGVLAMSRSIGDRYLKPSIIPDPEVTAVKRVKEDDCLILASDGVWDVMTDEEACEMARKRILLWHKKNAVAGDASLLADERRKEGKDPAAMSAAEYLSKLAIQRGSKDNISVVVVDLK
Substitution,relative binding score
E64L,2.09%
D3R,12%
I105A,-0.885%
E151L,20%
A13G,7.85%
T160F,46.3%
T160R,-2.64%
V100I,13.8%
Q19L,6.75%
T135E,-2.67%
D153S,-2.31%
V78R,37.9%
K58T,-1.01%
S26M,0.892%
N149R,13%
T119W,-1.23%

# Single results of other studies
# Form: peptide
# Direction: direction not given
Molecule,target or system,assay,test system,conditions,enrichment score
GAPLKKLFTSTGL,Saccharomyces cerevisiae,"peptide binding, yeast competitive growth sequencing",cyclin F-Cln2 fusion,library 1,-0.33
GFGFLLFICKLTF,Cln2 (Saccharomyces cerevisiae),"peptide binding, competitive growth sequencing","Saccharomyces cerevisiae, unfused Cln2 strain",mutational scanning library 2,-0.563
REASKSRVQLFKDDPM,human cyclin B1-Cln2 fusion,"yeast growth, competitive growth deep sequencing",Saccharomyces cerevisiae,peptide tiling library,-0.379

# Some of these lines once more (study 6):
Substitution,relative binding score
T160R,-2.64%
V100I,13.8%
Q19L,6.75%
T135E,-2.67%
D153S,-2.31%
V78R,37.9%
K58T,-1.01%
S26M,0.892%
N149R,13%
